Experimental data pooled from the literature.
Each line is one published result; not all experiments were run side by side. Several values in a cell are separate wells, animals, samples, runs or records. Numbers after ± are the reported error.
rep R3428I 3C-like proteinase: Replicase polyprotein 1ab, 3C-like proteinase (rep, Severe acute respiratory syndrome-related coronavirus, UniProt P0C6X7, R3428I)
OPRL1: Nociceptin receptor (OPRL1, Homo sapiens, UniProt P41146)
N/L: N/L (Lymphocytic choriomeningitis virus, UniProt P09992+P14240)
OPRM1: Mu-type opioid receptor (OPRM1, Homo sapiens, UniProt P35372)
OPRK1: Kappa-type opioid receptor (OPRK1, Homo sapiens, UniProt P41145)

Amino acid sequences for entries named in this document (tags omitted). Residues count along the entry.
UniProt P41146, whole entry: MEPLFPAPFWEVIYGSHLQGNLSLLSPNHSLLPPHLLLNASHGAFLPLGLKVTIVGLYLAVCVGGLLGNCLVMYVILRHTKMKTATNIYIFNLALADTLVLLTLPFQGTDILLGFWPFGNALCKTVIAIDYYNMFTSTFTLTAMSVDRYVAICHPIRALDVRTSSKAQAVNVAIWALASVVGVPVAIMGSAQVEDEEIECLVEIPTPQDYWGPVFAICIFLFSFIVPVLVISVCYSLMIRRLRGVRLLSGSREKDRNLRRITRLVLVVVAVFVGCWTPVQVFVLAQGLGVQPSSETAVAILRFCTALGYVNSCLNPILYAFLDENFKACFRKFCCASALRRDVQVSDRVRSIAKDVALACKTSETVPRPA
UniProt P35372, whole entry: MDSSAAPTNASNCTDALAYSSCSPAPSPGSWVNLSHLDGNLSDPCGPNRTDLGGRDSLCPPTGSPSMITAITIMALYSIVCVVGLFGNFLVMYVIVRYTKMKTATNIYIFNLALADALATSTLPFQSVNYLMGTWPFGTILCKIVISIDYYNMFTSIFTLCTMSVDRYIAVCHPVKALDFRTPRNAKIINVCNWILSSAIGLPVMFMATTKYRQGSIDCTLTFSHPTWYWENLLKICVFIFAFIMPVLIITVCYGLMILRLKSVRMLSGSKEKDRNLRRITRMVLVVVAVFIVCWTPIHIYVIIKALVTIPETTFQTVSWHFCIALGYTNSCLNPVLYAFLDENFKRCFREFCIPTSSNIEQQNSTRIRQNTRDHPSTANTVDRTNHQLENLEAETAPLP
UniProt P41145, whole entry: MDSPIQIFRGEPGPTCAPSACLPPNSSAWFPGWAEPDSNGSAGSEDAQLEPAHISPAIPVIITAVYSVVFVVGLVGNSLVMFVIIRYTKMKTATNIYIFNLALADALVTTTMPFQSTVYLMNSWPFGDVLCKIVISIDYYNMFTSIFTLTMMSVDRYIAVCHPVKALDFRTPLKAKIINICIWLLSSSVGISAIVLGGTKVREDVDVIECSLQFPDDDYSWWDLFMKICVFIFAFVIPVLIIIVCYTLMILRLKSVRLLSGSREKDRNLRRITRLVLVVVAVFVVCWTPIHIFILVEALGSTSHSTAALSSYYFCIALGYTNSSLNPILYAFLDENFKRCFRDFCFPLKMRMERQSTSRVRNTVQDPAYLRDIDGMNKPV
UniProt P33533, whole entry: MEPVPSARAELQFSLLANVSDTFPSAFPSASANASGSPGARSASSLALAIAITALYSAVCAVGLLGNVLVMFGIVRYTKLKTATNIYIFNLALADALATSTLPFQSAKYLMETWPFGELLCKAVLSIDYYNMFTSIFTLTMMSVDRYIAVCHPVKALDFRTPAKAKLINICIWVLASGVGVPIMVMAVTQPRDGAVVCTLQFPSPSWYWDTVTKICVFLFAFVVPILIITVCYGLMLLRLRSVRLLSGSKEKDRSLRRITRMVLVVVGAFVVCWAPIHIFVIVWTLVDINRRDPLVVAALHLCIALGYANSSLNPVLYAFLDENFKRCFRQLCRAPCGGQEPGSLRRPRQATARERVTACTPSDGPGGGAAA
UniProt O75469, whole entry: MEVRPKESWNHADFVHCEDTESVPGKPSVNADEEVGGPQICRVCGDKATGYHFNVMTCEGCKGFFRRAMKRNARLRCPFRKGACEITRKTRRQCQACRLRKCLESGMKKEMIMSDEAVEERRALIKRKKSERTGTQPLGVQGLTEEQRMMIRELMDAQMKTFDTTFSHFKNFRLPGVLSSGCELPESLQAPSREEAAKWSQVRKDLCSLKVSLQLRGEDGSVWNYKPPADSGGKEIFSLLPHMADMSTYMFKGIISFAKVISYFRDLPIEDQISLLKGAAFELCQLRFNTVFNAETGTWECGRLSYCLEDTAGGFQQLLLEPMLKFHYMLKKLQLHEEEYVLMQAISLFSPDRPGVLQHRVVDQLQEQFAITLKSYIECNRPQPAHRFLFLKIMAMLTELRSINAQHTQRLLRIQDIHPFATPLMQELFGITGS
UniProt Q8N3R9, 256-336 F318W limits assumed: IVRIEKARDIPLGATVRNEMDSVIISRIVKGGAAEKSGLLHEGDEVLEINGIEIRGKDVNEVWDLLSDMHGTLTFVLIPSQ

| SMILES | tested on | test | system | conditions | endpoint | result |
| --- | --- | --- | --- | --- | --- | --- |
| O=C(N[C@@H](COC(=O)c1ccccc1)C(=O)NC1CCCCC1)c1ccccc1 | rep R3428I 3C-like proteinase | enzyme activity, inhibitor, HPLC substrate depletion |  | pH 4.0 | IC50 | 220 µM |
| CCC1C(=O)N(C2CCN(CCCc3ccccc3)CC2)c2ccccc21 (stereo not drawn) | OPRL1 | agonist | cell membranes |  | EC50 | 0.0722 ± 0.0194 µM |
| O=C(O)c1ccc(Cc2cccs2)cc1 | Ricin, A chain (Ricinus communis, UniProt P02879) | binding, SPR |  |  | Kd | 404 µM |
| Fc1ccc(CNc2ncnc3ccc(F)cc23)cc1 | N/L | viral replication, Gaussia luciferase reporter |  |  | EC50 | 8.63 µM |
| O=C(/C=C/c1ccccc1)N[C@@H](COC(=O)/C=C/c1ccccc1)C(=O)NC1CCCCC1 | rep R3428I 3C-like proteinase | enzyme activity, inhibitor, HPLC substrate depletion |  | pH 4.0 | IC50 | 85 µM |
| CC(=O)N[C@H](C(=O)N[C@@H](CC(C)C)C(=O)N[C@@H](C[C@@H]1CCNC1=O)C(=O)c1nccs1)C(C)C | rep R3428I 3C-like proteinase | enzyme activity, inhibitor, HPLC |  | 60 min, 37 °C, with: substrate 111 µM | IC50 | 24 µM |
| O=CN1CC[C@]23c4c5ccc(O)c4O[C@H]2[C@@H](O)C=C[C@H]3[C@H]1C5 | Oprd1 (Rattus norvegicus, UniProt P33533) |  | rat brain membranes | with: [3H]DSLET | Ki | 17.7 ± 1.2 µM |
| CC(C)OP(=S)(OC(C)C)SCCNS(=O)(=O)c1ccccc1 | NR1I2 (Homo sapiens, UniProt O75469) | reporter gene, agonist | HepG2 | 24 h, qHTS primary screen | EC50 | 5.4 µM |
| CCC1C(=O)N(C2CCN(C3CCCc4ccccc43)CC2)c2ccccc21 (stereo not drawn) | OPRL1 | agonist | cell membranes |  | EC50 | 0.0502 ± 0.0088 µM |
| NC12CC3CC(CC(C3)C1)C2 | Influenza A virus | viral replication | MDCK, A/Swine/Illinois/21-1230/2009 |  | EC50 | > 100 µM |
| Nc1nc(N)c2nc(CNc3ccc(C(=O)N[C@@H](CCC(=O)O)C(=O)O)cc3)cnc2n1 | Botulinum neurotoxin type A, heavy chain (Clostridium botulinum, UniProt P0DPI0) | binding, scintillation proximity |  |  | EC50 | 0.703 µM and 0.7 µM |
| O=C1Cc2ccccc2N1C1CCN([C@H]2CC[C@@H]3CCCc4cccc2c43)CC1 (relative stereo) | OPRM1 | radioligand displacement |  | with: [3H]DAMGO | Ki | 0.0415 ± 0.00371 µM |
| COc1cccc(/C=C/C(=O)N[C@H](COC(=O)c2ccccc2)C(=O)NC2CCCCC2)c1 | rep R3428I 3C-like proteinase | enzyme activity, inhibitor, HPLC substrate depletion |  | pH 4.0 | IC50 | 85 µM |
| CCC1C(=O)N(C2CCN(Cc3cccc4[nH]ccc34)CC2)c2ccccc21 (stereo not drawn) | OPRK1 | radioligand displacement |  | with: tritiated U-69593 | Ki | 0.0128 ± 0.0016 µM |
| CO/C=C(/C(=O)OC)c1ccccc1Oc1cc(Oc2ccccc2C#N)ncn1 | N/L | viral replication, Gaussia luciferase reporter |  |  | EC50 | 4.98 µM |
| O=S(=O)(CCCn1cc(CCNS(=O)(=O)c2ccc(Br)cc2Cl)nn1)Nc1ccc(Nc2ccc(C(F)(F)F)nn2)cc1 | UDP-N-acetylglucosamine 2-epimerase (Bacillus anthracis, UniProt A0A348ACF3, N370A) | isothermal titration calorimetry |  |  | Kd | 0.1 µM |
| CCC1C(=O)N(C2CCN(C3CCc4ccccc4C3)CC2)c2ccccc21 (stereo not drawn) | OPRL1 | agonist | cell membranes |  | EC50 | 0.0279 ± 0.0171 µM |
| COC(=O)[C@@H](Cc1ccc(O)c(O)c1)OC(=O)[C@H]1c2c(/C=C/C(=O)O[C@H](Cc3ccc(O)c(O)c3)C(=O)O)ccc(O)c2O[C@@H]1c1ccc(O)c(O)c1 | Spike glycoprotein (Severe acute respiratory syndrome coronavirus 2, UniProt P0DTC2) | biolayer interferometry |  |  | Kd | 18.6 µM |
| CC(C)C[C@H](NC(=O)[C@H](CC(N)=O)NC(=O)[C@@H](N)CCCCN)C(=O)N[C@@H](CC(N)=O)C(=O)N[C@@H](CO)C(=O)N[C@@H](CO)C(=O)N[C@@H](CCC(=O)O)C(=O)NCC(=O)N[C@H](C(=O)N1CCC[C@H]1C(=O)N[C@@H](CC(=O)O)C(=O)N[C@@H](CC(C)C)C(=O)N[C@@H](CC(C)C)C(=O)N[C@H](C(=O)O)C(C)C)C(C)C | Protein PALS1 (PALS1, Homo sapiens, UniProt Q8N3R9, F318W) | SPR |  | pH 7.4, 25 °C, with: PALS1 PDZ F318W | Kd | 69 ± 7 µM |
| CCC1C(=O)N(C2CCN([C@H]3CC[C@@H]4CCCc5cccc3c54)CC2)c2ccccc21 (relative stereo) | OPRM1 | agonist | cell membranes |  | EC50 | 0.0569 ± 0.0193 µM |
| CN(C)[C@]1(c2ccccc2)CC[C@]2(CC1)OCCc1c3cc(F)ccc3[nH]c12 | OPRK1 | cAMP, agonist |  | human receptor | EC50 | 0.166 ± 0.0679 µM |

Repeated from above:
| SMILES | tested on | test | system | conditions | endpoint | result |
| --- | --- | --- | --- | --- | --- | --- |
| COc1cccc(/C=C/C(=O)N[C@H](COC(=O)c2ccccc2)C(=O)NC2CCCCC2)c1 | rep R3428I 3C-like proteinase | enzyme activity, inhibitor, HPLC substrate depletion |  | pH 4.0 | IC50 | 85 µM |
| CCC1C(=O)N(C2CCN(Cc3cccc4[nH]ccc34)CC2)c2ccccc21 (stereo not drawn) | OPRK1 | radioligand displacement |  | with: tritiated U-69593 | Ki | 0.0128 ± 0.0016 µM |
